Measured values collected from several papers.
Compare with care: the assays were run in different laboratories.

CC[N+]1(C)CCN(c2ccc(NC(=O)c3cccc(C)n3)cc2)CC1 — remaining compound (pooled BALB/c mouse plasma; 1 µM, 0.08333 h): 98.3%
CSc1nccc(C(=O)N[C@@H](CCC(=O)O)C(=O)N[C@@H](Cc2ccc3ccccc3c2)C(=O)N[C@@H](CC(C)C)C(=O)NC2CC2c2ccccc2)n1 (some centres unmarked) — remaining compound (pooled human plasma; 30 min, 37 °C): 106%
N#Cc1ccc(Nc2nc(N)cc(Oc3c(F)cc(-c4ccc(C#N)cc4)cc3F)n2)cc1 — remaining compound (monkey plasma; 1 µM, 0.50 h, pH 7.4, 37 °C): 94.8%
Cc1cc(Oc2ncccc2CN2CCN(c3ncccc3C(F)(F)F)CC2)ccc1-c1c(C)c(=O)[nH]c(=O)n1C — remaining compound (metabolic stability; rat liver S9 fraction; 2 µM, 0.6667 h, pH 7.4): > 90%
Cn1cncc1-c1c(F)cncc1NC(=O)c1c(N)nn2cc(F)cnc12 — remaining compound (DMSO stock solution; 100 µg/mL, 6 months, -80 °C): 99.6%
NC(=O)c1ccccc1NC(=O)c1ccc(-c2ccccc2)cc1 — remaining compound (human plasma; 2 µM, 10 min, 37 °C): 114%
CSc1ncc(Br)c(C(=O)N[C@@H](CCC(=O)O)C(=O)N[C@@H](Cc2ccc3ccccc3c2)C(=O)N[C@@H](CC(C)C)C(=O)N[C@@H]2C[C@H]2c2ccccc2)n1 — remaining compound (pooled human plasma; 60 min, 37 °C): 98.1%
CCOc1ccc2ccc(=O)oc2c1 — remaining compound (human liver microsomes; 1 µM, 30 min, pH 7.4): 20.9%

A few entries again:
CSc1ncc(Br)c(C(=O)N[C@@H](CCC(=O)O)C(=O)N[C@@H](Cc2ccc3ccccc3c2)C(=O)N[C@@H](CC(C)C)C(=O)N[C@@H]2C[C@H]2c2ccccc2)n1 — remaining compound (pooled human plasma; 60 min, 37 °C): 98.1%
